Values quoted from earlier work that unrelated publications cite.
± marks the error that the study gave.
Chain of UniProt Q12884 (whole entry, looked up): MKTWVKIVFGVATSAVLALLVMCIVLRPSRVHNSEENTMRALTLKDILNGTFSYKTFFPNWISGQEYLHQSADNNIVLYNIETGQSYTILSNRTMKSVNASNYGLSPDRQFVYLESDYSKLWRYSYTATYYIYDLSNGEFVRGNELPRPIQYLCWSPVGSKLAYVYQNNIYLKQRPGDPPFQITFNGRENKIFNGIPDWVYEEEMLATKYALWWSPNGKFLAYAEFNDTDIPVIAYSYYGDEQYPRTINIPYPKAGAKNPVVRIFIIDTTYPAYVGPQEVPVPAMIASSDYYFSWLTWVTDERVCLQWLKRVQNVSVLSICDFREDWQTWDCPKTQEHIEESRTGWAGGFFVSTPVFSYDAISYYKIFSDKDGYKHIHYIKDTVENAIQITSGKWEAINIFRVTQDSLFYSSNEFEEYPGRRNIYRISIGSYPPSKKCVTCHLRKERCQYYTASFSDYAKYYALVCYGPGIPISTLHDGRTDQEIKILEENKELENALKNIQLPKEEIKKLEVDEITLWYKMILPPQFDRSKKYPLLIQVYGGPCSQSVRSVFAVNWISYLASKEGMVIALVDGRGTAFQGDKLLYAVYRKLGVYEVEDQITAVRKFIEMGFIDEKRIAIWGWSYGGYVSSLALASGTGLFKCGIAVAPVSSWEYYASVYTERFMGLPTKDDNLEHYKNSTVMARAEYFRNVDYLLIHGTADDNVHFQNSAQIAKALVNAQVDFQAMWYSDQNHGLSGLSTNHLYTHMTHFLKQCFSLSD

SMILES	tested on	assay	system	conditions	endpoint	result
NC(=S)NN=Cc1cc2ccccc2nc1SCC(=O)Nc1ccc(Cl)cc1	tyrosinase	inhibitor			IC50	25.75 ± 0.19 µM
C1=C2CCCN[C@H]2[C@@H]2C[C@H]1[C@H]1CCCCN1C2	HIV-1 NL4-3 Nanoluc	viral replication	MT-4		IC50	1.75 µM
CC[C@H](C)[C@H](NC(=O)[C@@H]1CCCN1C(=O)CNC(=O)[C@H](Cc1ccccc1)NC(=O)[C@H](CC(N)=O)NC(=O)[C@H](CC(N)=O)NC(=O)[C@H](CO)NC(=O)[C@H](CO)NC(=O)[C@H](Cc1c[nH]cn1)NC(=O)[C@H](CCCNC(=N)N)NC(=O)[C@H](CC(C)C)NC(=O)[C@H](Cc1ccccc1)NC(=O)[C@H](CCC(=O)O)NC(=O)[C@H](C)NC(=O)[C@H](CC(C)C)NC(=O)[C@H](CCCNC(=N)N)NC(=O)[C@H](CCC(N)=O)NC(=O)[C@@H](NC(=O)[C@H](C)NC(=O)[C@@H]1CSSC[C@H](NC(=O)[C@H](CCCCN)NC(=O)CC[C@H](NC(=O)CCCCCCCCCCCCCCCCCCC(=O)O)C(=O)O)C(=O)N[C@@H](CC(N)=O)C(=O)N[C@@H]([C@@H](C)O)C(=O)N[C@@H](C)C(=O)N[C@@H]([C@@H](C)O)C(=O)N1)[C@@H](C)O)C(=O)N[C@@H](CC(C)C)C(=O)N1CCC[C@H]1C(=O)N1CCC[C@H]1C(=O)N[C@H](C(=O)N[C@@H](CC(N)=O)C(=O)N[C@H](C(=O)NCC(=O)N[C@@H](CO)C(=O)N[C@@H](CC(N)=O)C(=O)N[C@H](C(=O)N1CCC[C@H]1C(N)=O)[C@@H](C)O)C(C)C)[C@@H](C)O			obese or overweight humans	2.4 mg once weekly, 68 weeks	nausea incidence	24%
CCc1nn(C)c2nc(-c3ccc(C(=O)O)cc3)nc(NCc3ccc(F)cc3)c12	HCT-8	cytotoxicity			CC50	> 100 µM
CC[C@H](C)[C@H](NC(=O)[C@H](Cc1ccccc1)NC(=O)[C@H](CCC(=O)O)NC(=O)[C@H](CCCCN)NC(=O)[C@H](C)NC(=O)[C@H](C)NC(=O)[C@H](CCC(N)=O)NC(=O)CNC(=O)[C@H](CCC(=O)O)NC(=O)[C@H](CC(C)C)NC(=O)[C@H](Cc1ccc(O)cc1)NC(=O)[C@H](CO)NC(=O)[C@H](CO)NC(=O)[C@@H](NC(=O)[C@H](CC(=O)O)NC(=O)[C@H](CO)NC(=O)[C@@H](NC(=O)[C@H](Cc1ccccc1)NC(=O)[C@@H](NC(=O)CNC(=O)[C@H](CCC(=O)O)NC(=O)[C@H](C)NC(=O)[C@@H](N)Cc1c[nH]cn1)[C@@H](C)O)[C@@H](C)O)C(C)C)C(=O)N[C@@H](C)C(=O)N[C@@H](Cc1c[nH]c2ccccc12)C(=O)N[C@@H](CC(C)C)C(=O)N[C@H](C(=O)N[C@@H](CCCCN)C(=O)NCC(=O)N[C@@H](CCCNC(=N)N)C(N)=O)C(C)C	FAP (Homo sapiens, UniProt Q12884)	enzymatic degradation, substrate	in vitro		half-life	22 h
CNC(=O)c1cc(Oc2ccc(NC(=O)Nc3ccc(Cl)c(C(F)(F)F)c3)cc2)ccn1	HepG2				IC50	8.38 µM
CC(=O)Oc1ccccc1C(=O)Nc1ncc([N+](=O)[O-])s1	Cryptosporidium parvum	parasite growth	Iowa		EC50	2 µM

Repeated from above:
SMILES	tested on	assay	system	conditions	endpoint	result
CNC(=O)c1cc(Oc2ccc(NC(=O)Nc3ccc(Cl)c(C(F)(F)F)c3)cc2)ccn1	HepG2				IC50	8.38 µM
